Experimental data gathered from unrelated publications.
“And” joins repeats or separate records; there may be more than shown. ± marks the error that the study gave.
MKC1: Mitogen-activated protein kinase MKC1 (MKC1, Candida albicans, UniProt P43068)
TOP2A: DNA topoisomerase 2-alpha (TOP2A, Homo sapiens, UniProt P11388)
BEST2: Bestrophin-2a (BEST2, Homo sapiens, UniProt Q8NFU1)
T1: ssDNA, aptamer; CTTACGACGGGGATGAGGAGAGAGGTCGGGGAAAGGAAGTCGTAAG

| Compound | target | assay | test system | conditions | how to read | endpoint | value |
| --- | --- | --- | --- | --- | --- | --- | --- |
| CC(=O)Nc1ccc(O)cc1 | BRD4 (Homo sapiens, UniProt O60885) | 19F NMR, measured: tyrosine 65 | – | 48 µM | relative to: free protein | chemical shift change | -0.01 ppm |
| Nc1ncnc2c1ncn2[C@@H]1O[C@H](CO[P@](=O)(O)O[P@](=O)(O)O[P@@](=O)(O)S)[C@@H](O)[C@H]1O | GUK1 (Homo sapiens, UniProt Q16774) | binding, isothermal titration calorimetry | – | molar ratio 2.388, fitted curve | – | ΔH | -0.372 kcal/mol |
| CC1CCCN(C(=O)c2cc3ncccn3n2)C1 (centres unmarked) | Histone-lysine N-methyltransferase SETDB1, triple tudor domain (SETDB1, Homo sapiens, UniProt Q15047) | binding, affinity selection mass spectrometry | – | – | relative to: other proteins in batch | log fold enrichment | -0.225 |
| Cc1n[nH]c2ccc(-c3cc(OC[C@@H](N)Cc4ccccc4)cnc3-c3ccoc3)cc12 | MKC1 | kinase binding, competitor, MIB/MS competition, measured: MKC1 | Candida albicans cell lysate | 100 nM | relative to: DMSO | log2 fold change | -0.00282 |
| CCCCC[C@H](O)/C=C/[C@H]1[C@H](O)CC(=O)[C@@H]1C/C=C\CCCC(=O)O | PTGER1 (Homo sapiens, UniProt P34995, G92S) | IP1 accumulation, agonist | AD293 | 1 h, EP1 G92S mutant | – | Emax | 108 ± 6.35% |
| CC(=O)c1cnc2ccc(-c3cc(Cl)c(O)c(Cl)c3)nc2c1N[C@H]1CC[C@H](CN(C)C)CC1 | PKN1 (Homo sapiens, UniProt Q16512) | inhibitor | – | – | – | Hill slope | -0.883 |
| Cl.c1ccc(Oc2ccc(Oc3ccc4ncc(OCC5CCNCC5)nc4c3)cc2)cc1 | Protein AF-9, with DOT1L (Homo sapiens, UniProt P42568) | inhibitor, AlphaLISA | – | 10 µM | – | activity | inactive |
| C[C@@H]1C[C@H](Nc2ccccc2)c2cc(F)ccc2N1C(=O)c1ccnnc1 | Ecdysone receptor (Aedes albopictus, UniProt Q9U3Y4) | ligand binding, inhibitor | intact cells | added: [3H]ponasterone A | direction not given | pIC50 Z-score | -0.96 |
| CC[C@@H](C)[C@@H](NC(=O)[C@@H](Cc1ccc(O)cc1)NC(=O)[C@H]1CCCN1C(=O)[C@@H](CCCNC(=N)N)NC(=O)[C@H](N)Cc1c[nH]cn1)C(=O)N[C@H](C)C(=O)N[C@H](Cc1c[nH]cn1)C(=O)N[C@H](CCCNC(=N)N)C(=O)N[C@@H](C(=O)N[C@H](Cc1ccc(O)cc1)C(=O)N[C@H](CO)C(=O)N[C@H](Cc1ccccc1)C(N)=O)C(C)C | Cd274 (Mus musculus, UniProt Q9EP73) | Western blot, measured: PD-L1/GAPDH | mouse MC-38 tumour model, tumour tissue | dose not given, unit not given | relative to: saline | PD-L1 protein level | 0.855 |
| Nc1ncnc2c1ncn2[C@@H]1O[C@H](COP(=O)(O)CP(=O)(O)OP(=O)(O)O)[C@@H](O)[C@H]1O | P2X purinoceptor 1 (P2RX1, Homo sapiens, UniProt P51575, K140A) | calcium influx | – | 3.16 µM | relative to: ionomycin response | calcium influx | 76.7% and 90.8% and 84.8% and 84.6% |
| C=CC(=O)N1CCC[C@@H](n2nc(-c3ccc(Oc4ccccc4)cc3)c3c(N)ncnc32)C1 | FES (Homo sapiens, UniProt P07332) | – | – | 0.1 µM | – | remaining activity | 55% |
| O=c1cc(-c2ccc(OS(=O)(=O)[O-])cc2)oc2cc(OS(=O)(=O)[O-])cc(OCc3cccc(COc4cc(OS(=O)(=O)[O-])cc5oc(-c6ccc(OS(=O)(=O)[O-])cc6)cc(=O)c45)n3)c12.[Na+].[Na+].[Na+].[Na+] | Neutrophil elastase (ELANE, Homo sapiens, UniProt P08246) | – | – | 750 nM, added: chromogenic substrate | – | Vmax | 19 ± 0.7 mAU/min |
| Cc1c(COc2ccc(CN3CCCCC3C(=O)NCCNC(=O)CN(C)CCCC34CCC(c5ccccc53)c3ccccc34)cc2Br)cccc1-c1ccccc1 (centres unmarked) | CD274 (Homo sapiens, UniProt Q9NZQ7) | degrader, western blot | HL-60 | 1 µM | – | degradation | < 5% |
| Cc1cc(NC2=CC(=O)N(C3CCC(=O)NC3=O)C2=O)cc(C(C)(C)NCCc2ccc(C(F)(F)F)c(Cl)c2)c1 (centres unmarked) | Cereblon/Ikaros (Homo sapiens, UniProt Q13422+Q96SW2) | protein degradation, degrader, HiBiT luminescence | Jurkat | – | – | Dmax | 41% |
| O=S(=O)(O)C1CCNCC1 | SLC6A6 (Homo sapiens, UniProt P31641, Y138A) | binding, microscale thermophoresis | – | 31.3 µM, room temperature, added: 50 nM labelled protein | higher = more binding | normalised MST signal | -0.0309 |
| N[C@@H](Cc1ccccc1)C(=O)O | ADRB2 (Homo sapiens, UniProt P07550) | – | HEK293 expressing β2AR | 100 µM | – | cAMP level | 23.3 pmol/mg protein and 21 pmol/mg protein and 18.6 pmol/mg protein and 22.2 pmol/mg protein |

| Compound | target | assay | test system | conditions | how to read | endpoint | value |
| --- | --- | --- | --- | --- | --- | --- | --- |
| N[C@H](CC(=O)O)C(=O)O | aspartate racemase | HPLC | Salinispora arenicola | ATP, MgCl2, PLP, DTT, added: L-aspartate substrate | – | Km | 1350 ± 10 µM |
| O=c1nc(SCc2cc(F)cc(C(F)(F)F)c2)nc(SCc2cccc(C(F)(F)F)c2)[nH]1 | TOP2A | decatenation | – | 7.8 µM | – | mean decatenated DNA | 95.4% |
| CCCCCCCCC(=O)c1cc(O)c(O)c(O)c1 | Bile acid receptor (NR1H4, Homo sapiens, UniProt Q96RI1) | reporter gene, Gal4 hybrid reporter | – | 10 µM | relative to: vehicle | activation | 1.77 fold |
| Nc1ccc(C(=O)O)cc1 | BEST2 | whole-cell patch clamp | HEK293 transiently expressing channel | concentration not given, membrane potential -80 mV | – | current density | -187 pA/pF and -225 pA/pF and -134 pA/pF and -60.7 pA/pF and -255 pA/pF and -295 pA/pF |
| Cc1cc(Nc2cc3ncccc3c(N[C@@H]3C[C@H]4CC[C@@H](C3)N4CCC#N)n2)n[nH]1 | non-JAK kinases | KINOMEscan competition binding | – | 1 µM, inhibition at least 90% | – | number of kinases bound | 25 |
| c1coc(-c2n[nH]cc2-c2ccnc3ccccc23)c1 | MKC1 | kinase binding, MIB/MS competition | Candida albicans lysate | 1 µM | relative to: DMSO, negative = stronger binding | log2 fold change | -0.34 |
| [Cl-].[Cl-].[Zn+2] | HVCN1 (Homo sapiens, UniProt Q96D96, E119H) | whole-cell voltage clamp | – | 80 mV, open probability 0.8 | – | Hill coefficient | 0.9 |
| Nc1ncnc2c1ncn2[C@@H]1O[C@H](COP(=O)(O)OP(=O)(O)OP(=O)(O)O)[C@@H](O)[C@H]1O | T1, ssDNA, aptamer | ITC | – | – | – | Kd | 703 nM |
| Nc1nc(N)c2nc(CNc3ccc(C(=O)c4ccccc4)cc3)cnc2n1 | Pteridine reductase 1 (Leishmania major, UniProt Q01782) | – | – | hDHFR weight 10 | relative to: LmPTR1, LmDHFR over hDHFR, 1.0 selective, 0.0 non-selective | partition index | 0.95 |
| C[C@H](CCC(C)(C)O)[C@H]1CC[C@H]2[C@@H]3CC=C4C[C@@](C)(O)CC[C@]4(C)[C@H]3CC[C@]12C | Glutamate NMDA receptor; GRIN1/GRIN2B (GRIN1/GRIN2B, Homo sapiens, UniProt Q05586+Q13224, P557A) | positive allosteric modulator, two-electrode voltage clamp | Xenopus oocytes expressing GluN1-P557A | 10 µM, 0.02% cremophor, added: 100 µM glutamate and glycine | relative to: without compound | current response | 131 ± 4.8% |
| O=c1nc(SCc2cc(F)cc(C(F)(F)F)c2)nc(SCc2ccc3ncsc3c2)[nH]1 | TOP2A | decatenation | – | 125 µM | – | mean decatenated DNA | 0% |
| CC(C)=CCC/C(C)=C/CC/C(C)=C/COP(=O)(O)OP(=O)(O)O | Protein farnesyltransferase (Rattus norvegicus, UniProt Q02293+Q04631) | substrate, fluorescence kinetics | – | pH 7.5, 25 °C, added: dansyl-GCVLS peptide | – | Km | 0.11 ± 0.03 µM |
| O=c1nc(SCc2cc(F)cc(C(F)(F)F)c2)nc(SCc2ccc3ccccc3n2)[nH]1 | TOP2A | decatenation | – | 31.25 µM, replicate 2 | – | decatenated DNA | 0.32% |
| COc1ccc(OC)c(-c2cc(C(C)=O)n3ccccc23)c1 | BRD9 (Homo sapiens, UniProt Q9H8M2) | thermal stability, thermal shift | – | 200 µM, added: protein 10 µM | – | delta Tm | 7.3 °C |
| CCN(CCO)CCCC(C)Nc1ccnc2cc(Cl)ccc12 (centres unmarked) | SCN5A (Homo sapiens, UniProt Q14524) | sodium current, whole-cell patch clamp | – | 100 µM, without ATX-II | – | inactivation slope factor | 6.42 mV/e-fold and 5.82 mV/e-fold and 6.43 mV/e-fold |
| O=C(O)c1ccc([N+](=O)[O-])cc1 | BEST2 | whole-cell patch clamp | HEK293 transiently expressing channel | concentration not given, membrane potential 40 mV | – | current density | 130 pA/pF and 101 pA/pF and 36.3 pA/pF and 124 pA/pF and 152 pA/pF |
